Experimental data pooled from the literature.
Compare with care: the assays were run in different laboratories.
TMPRSS2: Transmembrane protease serine 2 (TMPRSS2, Homo sapiens, UniProt O15393)
UniProt O15393, sequence (whole entry, looked up): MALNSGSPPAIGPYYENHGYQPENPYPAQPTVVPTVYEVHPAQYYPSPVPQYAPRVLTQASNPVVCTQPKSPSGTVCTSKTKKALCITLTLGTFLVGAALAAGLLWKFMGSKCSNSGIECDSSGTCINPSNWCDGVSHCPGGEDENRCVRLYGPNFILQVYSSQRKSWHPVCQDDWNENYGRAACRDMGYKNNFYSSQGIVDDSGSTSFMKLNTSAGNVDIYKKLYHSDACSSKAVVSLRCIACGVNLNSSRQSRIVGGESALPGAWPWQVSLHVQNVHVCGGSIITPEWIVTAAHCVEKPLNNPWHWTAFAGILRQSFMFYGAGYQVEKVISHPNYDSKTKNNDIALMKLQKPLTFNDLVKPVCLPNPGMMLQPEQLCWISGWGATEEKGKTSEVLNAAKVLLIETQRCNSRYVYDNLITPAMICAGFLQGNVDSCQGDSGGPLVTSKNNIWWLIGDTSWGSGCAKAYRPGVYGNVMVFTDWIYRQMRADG
UniProt P41594, sequence (whole entry, looked up): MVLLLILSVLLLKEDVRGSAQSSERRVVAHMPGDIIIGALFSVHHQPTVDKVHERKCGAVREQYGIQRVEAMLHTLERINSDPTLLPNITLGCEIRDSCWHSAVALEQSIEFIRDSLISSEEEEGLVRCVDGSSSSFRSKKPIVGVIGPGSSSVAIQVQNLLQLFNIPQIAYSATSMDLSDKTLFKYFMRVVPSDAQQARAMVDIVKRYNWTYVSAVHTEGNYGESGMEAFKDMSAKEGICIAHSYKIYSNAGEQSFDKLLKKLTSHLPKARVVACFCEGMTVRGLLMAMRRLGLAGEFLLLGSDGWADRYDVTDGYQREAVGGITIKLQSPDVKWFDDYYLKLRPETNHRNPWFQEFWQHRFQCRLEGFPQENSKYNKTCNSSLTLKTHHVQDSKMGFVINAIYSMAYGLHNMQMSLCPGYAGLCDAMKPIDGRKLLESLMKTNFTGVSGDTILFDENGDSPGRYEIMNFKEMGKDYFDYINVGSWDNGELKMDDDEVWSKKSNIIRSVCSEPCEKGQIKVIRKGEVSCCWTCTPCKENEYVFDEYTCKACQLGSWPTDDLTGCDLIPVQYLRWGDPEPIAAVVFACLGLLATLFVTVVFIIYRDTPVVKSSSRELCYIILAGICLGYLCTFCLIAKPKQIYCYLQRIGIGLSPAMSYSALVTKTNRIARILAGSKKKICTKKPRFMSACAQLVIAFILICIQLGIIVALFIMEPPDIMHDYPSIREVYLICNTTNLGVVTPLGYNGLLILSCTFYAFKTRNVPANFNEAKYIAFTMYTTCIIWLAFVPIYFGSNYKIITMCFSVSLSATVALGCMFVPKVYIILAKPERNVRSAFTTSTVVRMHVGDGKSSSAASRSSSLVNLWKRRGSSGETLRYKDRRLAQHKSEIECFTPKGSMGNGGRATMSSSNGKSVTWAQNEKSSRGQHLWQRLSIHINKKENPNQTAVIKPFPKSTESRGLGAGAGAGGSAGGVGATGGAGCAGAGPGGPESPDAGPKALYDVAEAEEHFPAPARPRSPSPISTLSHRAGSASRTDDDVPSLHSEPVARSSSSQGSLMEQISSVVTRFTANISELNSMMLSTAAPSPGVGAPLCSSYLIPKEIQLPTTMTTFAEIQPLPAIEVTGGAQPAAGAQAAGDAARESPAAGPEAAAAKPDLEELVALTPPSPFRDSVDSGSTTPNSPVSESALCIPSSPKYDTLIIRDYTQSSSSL
UniProt P57078, sequence (whole entry, looked up): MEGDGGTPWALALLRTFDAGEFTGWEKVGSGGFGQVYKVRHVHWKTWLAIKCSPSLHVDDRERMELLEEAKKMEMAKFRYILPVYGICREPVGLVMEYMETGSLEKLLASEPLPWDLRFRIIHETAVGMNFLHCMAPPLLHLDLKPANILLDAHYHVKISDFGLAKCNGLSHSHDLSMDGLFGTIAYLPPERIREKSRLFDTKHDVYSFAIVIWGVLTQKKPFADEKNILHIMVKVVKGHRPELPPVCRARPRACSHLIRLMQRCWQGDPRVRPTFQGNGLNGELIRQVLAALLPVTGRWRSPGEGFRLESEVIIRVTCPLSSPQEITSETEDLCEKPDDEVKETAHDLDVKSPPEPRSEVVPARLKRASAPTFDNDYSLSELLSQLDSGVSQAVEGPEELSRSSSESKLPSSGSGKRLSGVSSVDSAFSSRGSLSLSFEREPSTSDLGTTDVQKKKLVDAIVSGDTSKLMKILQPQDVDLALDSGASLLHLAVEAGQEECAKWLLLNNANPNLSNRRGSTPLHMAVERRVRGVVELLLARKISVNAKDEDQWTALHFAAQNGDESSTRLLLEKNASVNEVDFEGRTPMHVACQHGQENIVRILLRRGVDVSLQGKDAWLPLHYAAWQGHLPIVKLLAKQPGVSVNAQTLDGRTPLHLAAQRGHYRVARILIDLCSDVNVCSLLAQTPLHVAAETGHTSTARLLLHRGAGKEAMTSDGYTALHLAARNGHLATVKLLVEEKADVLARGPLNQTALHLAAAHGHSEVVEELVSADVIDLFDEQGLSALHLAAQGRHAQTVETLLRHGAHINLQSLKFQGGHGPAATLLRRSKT
UniProt Q9Y4K4, sequence (whole entry, looked up): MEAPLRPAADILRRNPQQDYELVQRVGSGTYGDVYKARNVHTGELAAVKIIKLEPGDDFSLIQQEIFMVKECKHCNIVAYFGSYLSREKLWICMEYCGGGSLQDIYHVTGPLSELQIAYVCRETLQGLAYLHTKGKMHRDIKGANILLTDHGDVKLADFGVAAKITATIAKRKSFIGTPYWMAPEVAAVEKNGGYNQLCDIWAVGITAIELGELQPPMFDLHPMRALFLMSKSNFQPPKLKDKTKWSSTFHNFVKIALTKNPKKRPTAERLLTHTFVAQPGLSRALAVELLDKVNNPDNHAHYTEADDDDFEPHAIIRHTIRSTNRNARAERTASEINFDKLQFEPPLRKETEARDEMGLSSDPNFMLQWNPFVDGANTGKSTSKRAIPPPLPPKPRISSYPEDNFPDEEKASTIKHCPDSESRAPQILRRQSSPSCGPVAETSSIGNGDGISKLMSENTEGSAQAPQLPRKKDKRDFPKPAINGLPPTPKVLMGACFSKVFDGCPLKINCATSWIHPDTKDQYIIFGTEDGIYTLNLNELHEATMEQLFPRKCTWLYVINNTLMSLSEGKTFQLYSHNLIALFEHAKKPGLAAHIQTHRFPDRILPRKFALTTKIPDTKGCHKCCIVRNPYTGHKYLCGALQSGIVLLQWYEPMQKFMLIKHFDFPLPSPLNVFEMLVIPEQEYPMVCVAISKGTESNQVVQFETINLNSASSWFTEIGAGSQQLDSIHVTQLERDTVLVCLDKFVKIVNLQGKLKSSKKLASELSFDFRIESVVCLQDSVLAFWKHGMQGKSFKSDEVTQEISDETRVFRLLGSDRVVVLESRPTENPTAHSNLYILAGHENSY

CC(C)CC(=O)OC[C@H]1O[C@@](C#N)(c2ccc3c(N)ncnn23)[C@H](O)[C@@H]1O  inhibition (GRM5 (Homo sapiens, UniProt P41594); cell-free assay; 20 µM): 15%
COc1ccc(-n2ccnc2SCC(=O)Nc2cccc(C(F)(F)F)c2)c(OC)c1  IC50 (PFF0160c (Plasmodium falciparum, UniProt Q08210, E182D); enzyme activity, inhibitor, absorbance): > 10000 nM
[2H]c1c([2H])c([C@]2([2H])CCCN2C(=O)C(C)(C)Oc2ccc3cn[nH]c3c2)c([2H])c([2H])c1C([2H])([2H])[2H]  remaining binding (LIM domain kinase 1 (LIMK1, Homo sapiens, UniProt P53667); binding, competition with immobilised ligand; 1 µM): 93%
Cc1nn(C)cc1-c1nc2c(N3CCN(Cc4ccc(Cl)cc4)CC3)c(Cl)cnc2[nH]1  remaining binding (RIPK4 (Homo sapiens, UniProt P57078); binding, competition with immobilised ligand; 1 µM): 74%
Nc1ncc(-c2nc(N3CCOCC3)nc(N3CCOCC3)n2)c(C(F)F)n1  remaining binding (EGFR (Homo sapiens, UniProt P00533); cell-free assay, competition with immobilised ligand; 10 µM): 56%
CC(=O)N[C@@H](CCC(N)=O)C(=O)N[C@@H](Cc1ccccc1)C(=O)N[C@H](CCCNC(=N)N)C(=O)c1nccs1  activity vs control (TMPRSS2; enzyme activity, inhibitor; 1 nM): 55%
CSc1nc2nc(C)c(Cc3cccc(C(F)(F)F)c3)c(C)n2n1  IC50 (PFF0160c (Plasmodium falciparum, UniProt Q08210); enzyme activity, inhibitor, absorbance): 445 nM
CC[C@H](C)[C@H](N)C(=O)N[C@@H](CCCNC(=N)N)C(=O)N[C@@H](C)C(=O)N[C@H](CCCNC(=N)N)C(=O)c1nc2ccccc2s1  activity vs control (TMPRSS2; enzyme activity, inhibitor; 1 nM): 101%
C#Cc1n[nH]c2c(-c3cn([C@@H](C)c4ccccn4)c(=O)[nH]c3=O)cc(F)cc12  inhibition (KIT (Homo sapiens, UniProt P10721); enzyme activity, inhibitor; 0.1 µM): -0.4%
CCC[C@H](NC(=O)[C@H](CCc1ccccc1)NC(=O)CCc1ccccc1)C(=O)N[C@@H](CCCNC(=N)N)C(=O)c1nc2ccccc2s1  activity vs control (TMPRSS2; enzyme activity, inhibitor; 1 nM): 70%
COc1ncccc1-c1cnn2ccc(N3CCN(C(=O)OC(C)C)CC3)nc12  remaining binding (MAP4K5 (Homo sapiens, UniProt Q9Y4K4); binding, competition with immobilised ligand; 1 µM): 76%

Excerpt of the above:
COc1ncccc1-c1cnn2ccc(N3CCN(C(=O)OC(C)C)CC3)nc12  remaining binding (MAP4K5 (Homo sapiens, UniProt Q9Y4K4); binding, competition with immobilised ligand; 1 µM): 76%
Nc1ncc(-c2nc(N3CCOCC3)nc(N3CCOCC3)n2)c(C(F)F)n1  remaining binding (EGFR (Homo sapiens, UniProt P00533); cell-free assay, competition with immobilised ligand; 10 µM): 56%
